Assay results gathered from unrelated publications.
Every numbered part comes from another study and shows a few of its results, in no order. Changes are numbered by the printed parent chain.

Series 1
Target: RING finger protein unkempt homolog, zinc fingers 1-6, GST-SBP tag (UNK, Homo sapiens, UniProt Q9C0B0, residues 30-357)
UniProt Q9C0B0, sequence (30-357, looked up): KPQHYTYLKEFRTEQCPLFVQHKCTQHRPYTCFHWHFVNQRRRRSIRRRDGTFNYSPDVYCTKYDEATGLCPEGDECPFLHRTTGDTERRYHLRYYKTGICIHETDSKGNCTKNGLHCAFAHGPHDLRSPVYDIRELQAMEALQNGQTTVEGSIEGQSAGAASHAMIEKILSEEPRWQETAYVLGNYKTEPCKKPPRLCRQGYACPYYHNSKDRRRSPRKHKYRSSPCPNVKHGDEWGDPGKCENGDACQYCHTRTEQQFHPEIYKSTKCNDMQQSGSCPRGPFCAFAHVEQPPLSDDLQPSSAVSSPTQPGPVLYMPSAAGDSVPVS
Method: RNA Bind-n-Seq
Molecule type: RNA
Matrix: in vitro
Tested at: not given
Setting: RNA with constant flanks, ends assumed
Reference: input RNA pool
Reading: higher = stronger binding
All sequences stand within: GGGAGUUCUACAGUCCGACGAUC … CAACAGAGGAUUGAGCAUCA
Sequence	bound/input enrichment [ratio]
GAACAAUCCUUGGAAACUGCUAAGGCAGUAAAGGAGCGCUAUAGUUAUGUCUGCCCAGAUUCCGUAAAAGAAUUUAACAAGUAUGAUACAGAUGGGUCAAAAUGGAUUAAACAGUAUACU	0.361
GGGACAGGGGUAGUGUUCCUGGUUUUGGUGGGGUUUGCCUUUAGUUUAAUUUUCCUUUUCCCGCUUCCCUUUGCCGGCUGGUGCGUACGUUGUAGUCCCCCGAGGCCAUGUCAGGAGACG	6.23
UGUGUAGCCUUUUUUAAUAUCCUUAAUGAGUUAAAUGACUAUGCAGGACAGCGAGAAGUUGCCGCAGAAGAAAUGGCGCACAGAGUGUAUGGUGAAUUAAUGAGAUAUGCUCAUGAUCUG	0.973
AGAGCCCAGGACGUUGAUGCUACAAACCCAAAUUAUGAAAUUAUGUGUAUGAUCAGAGACUUCCGAGGAAGUUUGGAUUAUAGACCAUUAACAACAGCAGAUCCUAUUGAUGAACAUAGG	0.477
CUGAAGGAAACAGCAUUUAAAUUUAAAGCCCUAAAGAAGGUUGCGCAGUUAGCAGUUAUAAACCGCCUGGAAAAGGCAUUUUGGAACUGGGUAGAAAAUUAUCCAGAUGAAUUUACAAAA	1.5
AUCAGAAGAGUGAAAUCUCAUAAAGAAUUUUUGAAUAAAACAACACACCAGCUUUUAUUUGUCCGGCAUCAGUUCAAAAUAGCUUUCUUCAGUGAGUUGAAACAAGAUACACAAAAUGCG	0.273
UCACCCACUCUUUGAGUACUUUGACUACGAGUCCAGAAAGAGCAUGAGUUGUUAUGUGCUCCGUAAUGUUCUGGAUUAUAACACAGAAAUUGUCUCUCAAGACCAGGUGGAUUCCAUAAU	0.127
UAUGAAUUUGACAAGUUUUGGUUUGAAGAAGAACCAGAAAGCAUUAUGUAUUUCAAUUUGUACCGAGAGAAGUUUCAUGAAAAGAUUAAAGGACUUUUACUGGAUUGUAAUGUAGCACUU	0.453
GGCUGGCCCCAGUCCCAAGGAACAAGAGAUGGUCAAGUCGCUAGAGACAUAUCAGGGGACAUCCGGAUUGGGGAAGACACUUGACUGCUAGAAUCAGAGGUUGGACACUAUACAUAAGGA	0.223
ACAAUUCUUCAAGAAAAACUUCAAGAAAUCAGAAAACAUUAUCUGUCAUUAAAAUCUGAAGCCGCUUCCAUUGAUCGGAGGAGAAAGCGUUUAAAGAAGAAAGAGAGAGAAAGUGCUGCU	0.36
AAAUCAUGUGUGUCAAAUAUUGAAAGUACUUUAUCUGCACUCCAAUAUGUAAGCAGCACCGCCGUUUCUUUAGAGAAUAGGUCUGCCAUUGUGAAGUAUAAUGCAAGCUCAGUCACUCCA	0.572

Series 2
Target: CEP164, C-terminal peptide (human)
Method: DHFR complementation, deep sequencing
Matrix: yeast
Setting: single substitutions, model-inferred values
Reference: wild type
Reading: higher = weaker binding
Starting sequence: PDZK1, PDZ domain 2 (human); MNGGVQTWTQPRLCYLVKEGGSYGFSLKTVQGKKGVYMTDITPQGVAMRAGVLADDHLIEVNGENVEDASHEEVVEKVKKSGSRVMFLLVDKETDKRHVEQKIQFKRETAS; partner HNRVKVYRF
Change	binding free energy change [kcal/mol]
V30F	0.254
V99F	-0.149
V99Q	-0.198
K33V	-0.243
D95W	-0.361
V74D	0.899
A110H	-0.00727
M38R	2.07
S81Y	0.58
E67Q	0.0632
Y15T	-0.199
G21L	0.136
N65G	0.262
S22A	0.158
T42Q	0.16
Q101R	-0.113
W8R	-0.118
L13Y	-0.0648
K106Y	-0.0971
M86L	0.27
L13E	-0.115
N62Q	1.48

Series 3
Target: Prothrombin, mature alpha-thrombin (F2, Homo sapiens, UniProt P00734)
Method: aptamer microarray, sandwich
Molecule type: DNA with 2'F-ANA
Matrix: in vitro
Tested at: 200 nM
Setting: whole 15-mer aptamer, many near background
With: Cy3 exosite-II aptamer, 400 nM
Reading: higher = stronger binding
Sequence: GGTTGGTGTGGTTGG
Modification	mean fluorescence intensity
2'F-ANA at 3 6 9 11 12 15	1040 a.u.
2'F-ANA at 1 5 6 7 11 13 14	56.3 a.u.
2'F-ANA at 2 4 5 6 7 8 10 12 13 14 15	48.8 a.u.
2'F-ANA at 6 8 11 12 14 15	204 a.u.
2'F-ANA at 2 4 5 7 8 9 11	93.9 a.u.
2'F-ANA at 2 3 6 9 11 12	876 a.u.
2'F-ANA at 1 3 4 5 8 9 12 13	80.1 a.u.
2'F-ANA at 1 3 4 5 6 7 8 9 10 11 12 14 15	48.3 a.u.
2'F-ANA at 1 2 5 6 9 11 12 13 14	64 a.u.
2'F-ANA at 3 8 10 12	672 a.u.
2'F-ANA at 2 6 7 8 10 12	180 a.u.
2'F-ANA at 1 2 3 5 8 9 10 11	44.9 a.u.
2'F-ANA at 4 6 7 13	199 a.u.
2'F-ANA at 1 2 6 7 9 10 11 12 13	58.6 a.u.
2'F-ANA at 2 3 6 12 15	1010 a.u.
2'F-ANA at 4 5 6 8 12 13 14 15	58.1 a.u.
2'F-ANA at 2 4 5 8 13	54.2 a.u.
2'F-ANA at 2 3 4 5 6 8 9 12 14	55.2 a.u.
2'F-ANA at 1 3 5 9 10 11 12 13 14 15	49.3 a.u.

Series 4
Target: Sox, HMG box (Pigoraptor chileana)
Method: Spec-seq
Molecule type: double-stranded DNA, one strand shown
Matrix: in vitro
Tested at: not given
Setting: whole probe, mean of replicates
Reference: not given
Reading: lower = stronger binding
All sequences stand within: GAGTCGTCTCGTCAGCAC … CCGTAGAGCACTCAGGTC
Target sequence (chain): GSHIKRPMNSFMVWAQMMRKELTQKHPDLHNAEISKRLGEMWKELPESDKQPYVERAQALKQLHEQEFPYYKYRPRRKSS
Sequence	relative binding energy [ln ratio]
GGCTGTT	-0.302
CATCCGT	0.862
CATCCTT	0.544
CATAGTC	-0.661
CATAATC	-0.413
ACTAGTT	-0.43
TTGGGTT	0.603
CCTGGTT	0.64
TAAGGTT	0.73
GATTGTT	-2.91
TATCGTT	-0.375
ATGGGTT	0.351
CATACGC	0.334
CATTTAT	-0.513
CATGGCC	0.453
CGATGTT	0.187
ATCGGTT	0.442
CATATCC	0.505
ACGAGTT	0.601

Series 5
Target: Sal-like protein 4, full length isoform B (SALL4, Homo sapiens, UniProt Q9UJQ4-2, residues 1-616)
Method: universal PBM
Molecule type: double-stranded DNA, one strand shown
Matrix: in vitro
Tested at: not given
Setting: 8-mer, flanks averaged, mean of replicates
Reading: higher = stronger binding
Sequence	E-score
CGCAGGGC	-0.172
AACAGTGG	-0.287
GGACGGTA	0.0446
CACAATTA	0.288
CCGCGTCA	-0.108
AACTCCCC	0.00989
ACTTTCAG	-0.00105
GCCCAAGC	-0.199
CACATGAA	0.191
CATGCAAA	0.207
CAACATAC	0.203
AATCATTC	0.235
AAAAAATT	0.355
CTTGACCA	0.014
TCGATTCA	0.0445
CTGTCTTA	0.0675
GCAGACTA	-0.0694
AACCTCAA	0.116

Series 6
Target: CCNB2, cyclin fold, Cln2 fusion (human)
Method: yeast growth competition, sequencing
Matrix: yeast
Setting: weak parent motif
Reference: not given
Reading: higher = stronger binding
Starting sequence: DBF4B docking peptide (human); LGYLYLLLTQSLW; partner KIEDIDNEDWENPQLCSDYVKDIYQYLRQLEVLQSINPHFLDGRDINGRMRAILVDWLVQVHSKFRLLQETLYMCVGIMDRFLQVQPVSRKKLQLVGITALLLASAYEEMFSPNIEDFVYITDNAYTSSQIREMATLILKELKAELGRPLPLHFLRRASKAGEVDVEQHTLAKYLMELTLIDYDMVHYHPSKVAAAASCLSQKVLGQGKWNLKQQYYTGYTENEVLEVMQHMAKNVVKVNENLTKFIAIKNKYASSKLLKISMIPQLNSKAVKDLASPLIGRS
Change	normalised enrichment score
AGYLYLLLTQSLW [L1A]	0.271
LGYLYLLATQSLW [L8A]	0.592
LGALYLLLTQSLW [Y3A]	0.105
LGYLYLLLTQALW [S11A]	0.54
LAYLYLLLTQSLW [G2A]	-0.0611
LGYLYLLLTASLW [Q10A]	0.679
LGYLYLLLTQSLA [W13A]	0.143

Series 7
Target: NFE2L2, bZIP domain (human)
Method: DHFR protein complementation
Matrix: yeast
Setting: single substitutions, most at no-binding floor
Reference: wild-type JUN-FOS pair
Reading: higher = stronger binding
Starting sequence: JUN, bZIP domain (human); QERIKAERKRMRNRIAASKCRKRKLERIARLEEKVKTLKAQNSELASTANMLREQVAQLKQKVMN; partner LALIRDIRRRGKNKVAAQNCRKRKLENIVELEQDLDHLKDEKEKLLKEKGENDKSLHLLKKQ
Change	binding fitness [natural log]
Q41W	-1.44
S43G	-1.37
A29N	-1.41
L45N	-1.55
T48R	-1.31
E32L	-1.44
V56G	-1.52
L38I	-1.52
A46G	-1.36
S47Y	-1.49
L38C	-1.46
S47D	-1.17
T48M	-1.35
T48E	-1.37
I28P	-1.53
K34E	-1.21
N42Q	-1.43
L38T	-1.48

Single results of other studies
Molecule	target	assay	test system	conditions	scale	quantity	result
PhoQ, residues 284 288 289 292 302 303 NLGVHL	PhoP, residues 12 14 15 18 19 SPWRL (Escherichia coli, UniProt P23836)	Sort-seq, item: YFP reporter	E. coli	PhoQ-PhoP variant library, with: 10 µM Mg2+	reference: high Mg2+ state, higher = stronger signaling	fold induction	5.86

Excerpt of the above (series 3):
Modification	mean fluorescence intensity
2'F-ANA at 4 5 6 8 12 13 14 15	58.1 a.u.
2'F-ANA at 1 3 4 5 6 7 8 9 10 11 12 14 15	48.3 a.u.
2'F-ANA at 1 2 5 6 9 11 12 13 14	64 a.u.
2'F-ANA at 6 8 11 12 14 15	204 a.u.
2'F-ANA at 2 3 6 9 11 12	876 a.u.
2'F-ANA at 1 3 4 5 8 9 12 13	80.1 a.u.
